Results gathered from unrelated publications.
Parts stem from different laboratories: compare values within a part only.
Chain of UniProt Q8WTQ7 (whole entry, looked up): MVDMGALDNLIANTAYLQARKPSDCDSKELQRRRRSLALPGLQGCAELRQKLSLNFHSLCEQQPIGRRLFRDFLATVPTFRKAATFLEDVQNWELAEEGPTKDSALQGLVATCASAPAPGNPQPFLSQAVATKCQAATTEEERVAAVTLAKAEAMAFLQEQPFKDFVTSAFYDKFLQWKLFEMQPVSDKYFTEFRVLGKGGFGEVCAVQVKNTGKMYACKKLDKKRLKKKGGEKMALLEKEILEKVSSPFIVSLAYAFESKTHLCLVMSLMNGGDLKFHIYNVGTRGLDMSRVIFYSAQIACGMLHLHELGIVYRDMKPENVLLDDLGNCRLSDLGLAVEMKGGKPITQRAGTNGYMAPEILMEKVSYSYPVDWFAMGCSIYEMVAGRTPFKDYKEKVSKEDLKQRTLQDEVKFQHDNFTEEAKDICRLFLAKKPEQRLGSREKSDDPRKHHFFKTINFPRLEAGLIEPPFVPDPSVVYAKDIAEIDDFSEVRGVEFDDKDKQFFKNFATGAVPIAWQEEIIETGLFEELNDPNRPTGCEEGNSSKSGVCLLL
Chain of UniProt P78368 (whole entry, looked up): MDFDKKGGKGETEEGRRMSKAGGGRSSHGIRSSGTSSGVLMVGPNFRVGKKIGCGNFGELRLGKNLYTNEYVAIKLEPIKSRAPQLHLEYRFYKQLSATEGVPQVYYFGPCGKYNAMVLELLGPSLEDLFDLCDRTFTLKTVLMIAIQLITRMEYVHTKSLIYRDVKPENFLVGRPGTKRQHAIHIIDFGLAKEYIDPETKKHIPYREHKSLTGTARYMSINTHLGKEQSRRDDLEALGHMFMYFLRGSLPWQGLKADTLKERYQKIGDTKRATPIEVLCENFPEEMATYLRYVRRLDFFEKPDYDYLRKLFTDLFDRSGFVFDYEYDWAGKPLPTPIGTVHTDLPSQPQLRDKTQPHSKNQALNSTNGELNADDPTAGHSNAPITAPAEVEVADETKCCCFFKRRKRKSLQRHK
Chain of UniProt Q12866 (whole entry, looked up): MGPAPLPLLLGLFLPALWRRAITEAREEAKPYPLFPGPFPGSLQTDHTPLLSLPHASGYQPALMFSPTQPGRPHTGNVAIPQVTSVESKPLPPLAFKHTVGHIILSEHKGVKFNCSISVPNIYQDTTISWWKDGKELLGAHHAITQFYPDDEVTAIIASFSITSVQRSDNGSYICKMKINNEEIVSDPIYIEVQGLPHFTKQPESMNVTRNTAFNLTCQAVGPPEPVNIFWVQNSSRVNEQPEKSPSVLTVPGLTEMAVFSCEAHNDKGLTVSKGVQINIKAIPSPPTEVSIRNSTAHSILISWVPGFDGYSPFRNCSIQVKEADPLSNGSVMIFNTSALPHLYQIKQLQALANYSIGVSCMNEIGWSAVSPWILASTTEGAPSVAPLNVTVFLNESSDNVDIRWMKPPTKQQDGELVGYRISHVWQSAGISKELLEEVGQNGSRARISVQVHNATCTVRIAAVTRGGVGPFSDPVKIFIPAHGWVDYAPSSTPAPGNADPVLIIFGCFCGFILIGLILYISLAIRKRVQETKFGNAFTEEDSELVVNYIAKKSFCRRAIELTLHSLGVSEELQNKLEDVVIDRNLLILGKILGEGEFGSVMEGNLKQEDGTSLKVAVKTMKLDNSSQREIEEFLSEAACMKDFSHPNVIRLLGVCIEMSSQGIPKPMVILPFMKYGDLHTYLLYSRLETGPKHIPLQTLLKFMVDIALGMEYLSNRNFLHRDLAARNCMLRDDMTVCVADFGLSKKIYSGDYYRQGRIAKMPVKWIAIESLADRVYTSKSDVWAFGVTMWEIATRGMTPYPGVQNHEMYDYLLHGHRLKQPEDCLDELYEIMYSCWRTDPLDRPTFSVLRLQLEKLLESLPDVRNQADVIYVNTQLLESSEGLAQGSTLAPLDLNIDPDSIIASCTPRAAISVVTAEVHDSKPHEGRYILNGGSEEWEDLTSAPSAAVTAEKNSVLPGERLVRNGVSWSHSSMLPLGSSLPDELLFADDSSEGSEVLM
Chain of UniProt P35916 (whole entry, looked up): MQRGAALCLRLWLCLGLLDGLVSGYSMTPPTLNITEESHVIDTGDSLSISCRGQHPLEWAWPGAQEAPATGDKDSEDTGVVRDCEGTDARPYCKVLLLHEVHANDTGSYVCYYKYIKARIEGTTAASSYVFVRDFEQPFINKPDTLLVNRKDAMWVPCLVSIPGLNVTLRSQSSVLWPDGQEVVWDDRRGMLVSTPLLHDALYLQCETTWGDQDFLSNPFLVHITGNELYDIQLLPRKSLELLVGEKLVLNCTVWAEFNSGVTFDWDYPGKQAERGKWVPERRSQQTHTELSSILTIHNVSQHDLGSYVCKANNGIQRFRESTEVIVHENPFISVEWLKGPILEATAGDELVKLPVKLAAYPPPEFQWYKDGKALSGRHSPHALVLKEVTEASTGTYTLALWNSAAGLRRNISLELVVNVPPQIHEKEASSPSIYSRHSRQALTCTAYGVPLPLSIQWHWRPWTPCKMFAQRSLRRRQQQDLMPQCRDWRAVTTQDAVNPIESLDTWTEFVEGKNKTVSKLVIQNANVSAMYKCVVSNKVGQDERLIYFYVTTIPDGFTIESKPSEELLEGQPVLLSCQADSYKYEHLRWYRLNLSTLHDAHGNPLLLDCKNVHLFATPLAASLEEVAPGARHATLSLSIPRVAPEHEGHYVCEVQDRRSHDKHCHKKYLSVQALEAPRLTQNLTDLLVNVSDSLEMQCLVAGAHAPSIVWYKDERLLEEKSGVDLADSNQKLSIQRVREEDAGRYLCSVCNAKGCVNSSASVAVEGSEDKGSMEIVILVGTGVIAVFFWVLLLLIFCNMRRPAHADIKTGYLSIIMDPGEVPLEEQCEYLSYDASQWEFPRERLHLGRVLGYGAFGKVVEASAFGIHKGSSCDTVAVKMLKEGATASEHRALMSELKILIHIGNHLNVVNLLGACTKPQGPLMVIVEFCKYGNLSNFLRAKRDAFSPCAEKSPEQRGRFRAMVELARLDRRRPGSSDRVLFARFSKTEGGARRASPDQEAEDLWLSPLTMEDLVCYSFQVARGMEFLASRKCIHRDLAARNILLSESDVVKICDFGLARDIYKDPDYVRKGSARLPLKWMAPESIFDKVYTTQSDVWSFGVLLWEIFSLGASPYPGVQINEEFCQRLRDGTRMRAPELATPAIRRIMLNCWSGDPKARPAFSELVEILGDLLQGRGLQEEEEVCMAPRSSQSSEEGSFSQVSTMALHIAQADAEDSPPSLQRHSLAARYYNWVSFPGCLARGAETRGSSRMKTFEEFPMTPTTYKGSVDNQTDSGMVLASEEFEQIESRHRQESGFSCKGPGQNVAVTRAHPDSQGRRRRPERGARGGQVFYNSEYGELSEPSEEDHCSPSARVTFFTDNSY
Chain of UniProt Q02763 (whole entry, looked up): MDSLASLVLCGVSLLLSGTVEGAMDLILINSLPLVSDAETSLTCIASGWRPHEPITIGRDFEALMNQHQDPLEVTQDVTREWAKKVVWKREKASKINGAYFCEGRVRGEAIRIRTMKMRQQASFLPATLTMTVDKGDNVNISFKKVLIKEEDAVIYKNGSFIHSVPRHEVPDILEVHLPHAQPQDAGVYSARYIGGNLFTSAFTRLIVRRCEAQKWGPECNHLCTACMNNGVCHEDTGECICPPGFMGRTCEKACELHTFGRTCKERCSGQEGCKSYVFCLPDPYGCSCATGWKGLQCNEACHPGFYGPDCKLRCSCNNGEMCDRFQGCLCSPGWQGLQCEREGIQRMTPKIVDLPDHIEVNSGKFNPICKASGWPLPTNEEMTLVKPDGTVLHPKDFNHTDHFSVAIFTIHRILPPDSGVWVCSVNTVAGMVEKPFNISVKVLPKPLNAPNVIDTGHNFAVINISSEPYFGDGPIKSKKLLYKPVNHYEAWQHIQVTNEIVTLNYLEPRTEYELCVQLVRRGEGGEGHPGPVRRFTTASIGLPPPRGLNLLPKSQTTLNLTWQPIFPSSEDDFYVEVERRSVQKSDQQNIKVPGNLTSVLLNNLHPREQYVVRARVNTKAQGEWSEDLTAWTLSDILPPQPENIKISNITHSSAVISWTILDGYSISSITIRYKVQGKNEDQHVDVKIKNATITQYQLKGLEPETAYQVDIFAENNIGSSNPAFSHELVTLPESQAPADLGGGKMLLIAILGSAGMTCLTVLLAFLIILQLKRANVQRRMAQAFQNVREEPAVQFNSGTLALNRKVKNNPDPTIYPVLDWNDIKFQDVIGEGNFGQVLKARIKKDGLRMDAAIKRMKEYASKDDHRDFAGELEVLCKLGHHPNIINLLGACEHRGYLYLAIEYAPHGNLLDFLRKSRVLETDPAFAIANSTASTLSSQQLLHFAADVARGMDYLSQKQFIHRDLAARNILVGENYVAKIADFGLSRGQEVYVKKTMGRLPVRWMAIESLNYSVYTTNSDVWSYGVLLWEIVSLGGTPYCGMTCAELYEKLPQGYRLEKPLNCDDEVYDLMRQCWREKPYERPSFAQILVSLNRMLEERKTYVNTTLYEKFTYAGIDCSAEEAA
Chain of UniProt P49137 (whole entry, looked up): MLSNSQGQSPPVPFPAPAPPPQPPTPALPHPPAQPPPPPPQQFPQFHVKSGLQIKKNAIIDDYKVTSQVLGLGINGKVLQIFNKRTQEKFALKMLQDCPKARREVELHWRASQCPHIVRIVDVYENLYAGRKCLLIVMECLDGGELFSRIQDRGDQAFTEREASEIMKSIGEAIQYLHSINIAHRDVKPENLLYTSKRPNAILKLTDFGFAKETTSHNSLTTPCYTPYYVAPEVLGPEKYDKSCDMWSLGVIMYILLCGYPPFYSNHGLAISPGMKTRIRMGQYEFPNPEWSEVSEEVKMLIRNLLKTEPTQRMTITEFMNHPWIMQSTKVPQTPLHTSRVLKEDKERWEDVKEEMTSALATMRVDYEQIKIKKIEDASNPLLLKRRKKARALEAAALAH

Series 1
Organism: Sarcocystis neurona
Observed: parasite growth
Concentration: 10 µM
Time: 96 h
Notes: secondary screen
SMILES | inhibition [%]
Cn1nnc2c(C(N)=O)ncn2c1=O | -17.9
C[C@](N)(Cc1ccc(O)c(O)c1)C(=O)O | -16.6
CN(C)CC/C=C1/c2ccccc2COc2ccc(CC(=O)O)cc21 | -17.7
C[C@H]1c2cccc(O)c2C(=O)C2=C(O)[C@]3(O)C(=O)C(C(N)=O)=C(O)[C@@H](N(C)C)[C@@H]3[C@@H](O)[C@@H]21 | 4

Series 2
Structure (SMILES): NS(=O)(=O)c1cc(NC(=O)Cc2ccccc2)ccc1Oc1cccc(Cl)c1
Method: competition with immobilised ligand
Concentration: 1 µM
target | observed | remaining binding [%]
TEC (Homo sapiens, UniProt P42680) | binding | 96
CHEK1 (Homo sapiens, UniProt O14757) | cell-free assay | 99
GSK3A (Homo sapiens, UniProt P49840) | cell-free assay | 93
Ribosomal protein S6 kinase alpha-5, C-terminal kinase domain (RPS6KA5, Homo sapiens, UniProt O75582) | cell-free assay | 100
FLT4 (Homo sapiens, UniProt P35916) | cell-free assay | 79

Series 3
Host: mouse
Medium: microsomes or S9
Concentration: 2 µM
Time: 0.5 h
SMILES | remaining compound [%]
Cc1cnc(C(=O)Nc2cc(Cl)c(Cl)c(Cl)c2)cn1 | 4.51
CC(C)=CCc1c2ccoc2c(O)c2oc(=O)ccc12 | 14.5
CCN(CC)S(=O)(=O)c1cc(C(=O)N2CCN(Cc3cnn(C)c3)CC2)c(Cl)cc1Cl | 1.71

Series 4
SMILES: C[S+]([O-])c1ccc(-c2nc(-c3ccncc3)c(-c3ccc(F)cc3)[nH]2)cc1 (stereo not drawn)
Observed: enzyme activity
Mode: inhibitor
Concentration: 0.5 µM
Baseline: control
target | remaining activity [%]
TEK (Homo sapiens, UniProt Q02763) | 94.5
ARAF (Homo sapiens, UniProt P10398) | 42.7
GRK7 (Homo sapiens, UniProt Q8WTQ7) | 107
ULK3 (Homo sapiens, UniProt Q6PHR2) | 83.2
EPHA3 (Homo sapiens, UniProt P29320) | 96.1
JAK3 (Homo sapiens, UniProt P52333) | 93.9
ACVR1B (Homo sapiens, UniProt P36896) | 127
MAP3K14 (Homo sapiens, UniProt Q99558) | 118
MAPKAPK2 (Homo sapiens, UniProt P49137) | 98.3
MERTK (Homo sapiens, UniProt Q12866) | 93.9
MAPK3 (Homo sapiens, UniProt P27361) | 101
CSNK1G2 (Homo sapiens, UniProt P78368) | 95.7

Some of these lines once more (series 2):
target | observed | remaining binding [%]
GSK3A (Homo sapiens, UniProt P49840) | cell-free assay | 93
Ribosomal protein S6 kinase alpha-5, C-terminal kinase domain (RPS6KA5, Homo sapiens, UniProt O75582) | cell-free assay | 100
FLT4 (Homo sapiens, UniProt P35916) | cell-free assay | 79
